Measured values of several laboratories.
Every numbered part comes from another study and shows a few of its results, in no order.

Study 1 — technique: RNA Bind-n-Seq; molecule type: RNA; sample: in vitro; concentration: 1 µM; notes: whole 134-nt RNA, ends assumed; added: 150 mM KCl; baseline: input library; reading: higher = stronger binding
Target: Ras GTPase-activating protein-binding protein 1, RRM domain (G3BP1, Homo sapiens, UniProt Q13283)
Chain of UniProt Q13283 (whole entry, looked up): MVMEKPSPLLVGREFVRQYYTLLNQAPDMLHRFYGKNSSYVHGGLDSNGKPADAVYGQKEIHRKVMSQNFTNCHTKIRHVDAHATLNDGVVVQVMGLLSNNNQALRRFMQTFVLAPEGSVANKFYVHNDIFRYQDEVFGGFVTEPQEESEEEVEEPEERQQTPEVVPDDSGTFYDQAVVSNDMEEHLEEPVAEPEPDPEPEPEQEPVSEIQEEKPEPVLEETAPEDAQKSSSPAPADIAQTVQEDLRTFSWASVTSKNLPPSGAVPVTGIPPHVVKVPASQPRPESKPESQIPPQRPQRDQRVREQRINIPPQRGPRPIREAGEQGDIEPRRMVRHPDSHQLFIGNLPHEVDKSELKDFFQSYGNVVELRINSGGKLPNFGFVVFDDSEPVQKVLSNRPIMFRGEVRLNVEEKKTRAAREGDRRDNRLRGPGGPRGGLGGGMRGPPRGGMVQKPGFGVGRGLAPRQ
All sequences stand within: GGGAGUUCUACAGUCCGACGAUC … UGGAAUUCUCGGGUGUCAAGG
Oligonucleotide	log2 enrichment
GUCCUGUGCUACACAUCGUAUGUACCGAAUCGGGGUGGGGAAAGGGGUUUUUUUGGGGAAAGUAUUAUGUUACGCCGUUCGGAUCUGCAC	1.08
GUCCUGUGCUACACAUCGUAUGUACCGAAUCGGGGAAAAAGGAAAAAGGGAAAAAGGGAAAGUAUUAUGUUACGCCGUUCGGAUCUGCAC	-0.161
GCAGGAAGUAAAAACAAAUGGAAAUGCAAAGGAUAGUGGCAGGGGUGGGGGUUGCUAAGGAAAGGGUGGGAUGGGAGUGGGUAAAGAGUU	0.753
CACUGACAACACGCACCCACACAGACACAGAGGGAAGGGGUUGGGAUGGGGACAGGGUGCACAGCAGGGCGGGGUAGGACCCCAGCCCCU	0.0932
UCCGCGUGUGAAGUUUUUCUCGGCUGCAUCAUGGGUGCCACAUUCUUUUUGUUGUUUUCAGUGCUGCAAAAGCCCCAUAUCUGGCCAAGU	-0.239
CAAGUCCUGUGCUACACAUCGUAUGUACCGAAUCGGGCCGGGGCCGGGGCCGGGGAAAGUAUUAUGUUACGCCGUUCGGAUCUGCACUUC	-1.46
CUCAAGUCCUGUGCUACACAUCGUAUGUACCGAAUCGGCCCGGCCCGGCCCGGGAAAGUAUUAUGUUACGCCGUUCGGAUCUGCACUUCC	-0.905
GUCCUGUGCUACACAUCGUAUGUACCGAAUCGGGUUUUUGGGGUUUUUGGGUUUUUGGGAAAGUAUUAUGUUACGCCGUUCGGAUCUGCA	0.293
UCCUCAAGUCCUGUGCUACACAUCGUAUGUACCGAAUCGGCGGGGCGGCGGAAAGUAUUAUGUUACGCCGUUCGGAUCUGCACUUCCAGC	-0.153
UCCUCAAGUCCUGUGCUACACAUCGUAUGUACCGAAUCGGAAAGGAGGUGGAAAGUAUUAUGUUACGCCGUUCGGAUCUGCACUUCCAGC	-0.22
CAAGUCCUGUGCUACACAUCGUAUGUACCGAAUCGGGUUUGGGAGGGUUUUUGGGAAAGUAUUAUGUUACGCCGUUCGGAUCUGCACUUC	0.607
GCAGGAAGUAAAAACAAAAAAAAAUGCUUCGGAUAGUGGCAGGGGUGGGGGUUGCUAAGGAAAGGGUGGGAUGGGAGUGGGUAAAGAGUU	1.28
GUCCUGUGCUACACAUCGUAUGUACCGAAUCAAAUUUAAAUUUUUUUAAACCCCCAAAAAAGUAUUAUGUUACGCCGUUCGGAUCUGCAC	-1.5
CCUGUGCUACACAUCGUAUGUACCGAAUCAAACCCCCCCAAACCCCCCCAAAUUUUUAAAAAAGUAUUAUGUUACGCCGUUCGGAUCUGC	-0.0269

Study 2 — technique: RNA Bind-n-Seq; molecule type: RNA; sample: in vitro; concentration: 100 nM; baseline: input RNA pool; reading: higher = stronger binding
Target: RING finger protein unkempt homolog, zinc fingers 1-6, SBP tag (UNK, Homo sapiens, UniProt Q9C0B0, residues 30-357)
Chain of UniProt Q9C0B0 (30-357, looked up): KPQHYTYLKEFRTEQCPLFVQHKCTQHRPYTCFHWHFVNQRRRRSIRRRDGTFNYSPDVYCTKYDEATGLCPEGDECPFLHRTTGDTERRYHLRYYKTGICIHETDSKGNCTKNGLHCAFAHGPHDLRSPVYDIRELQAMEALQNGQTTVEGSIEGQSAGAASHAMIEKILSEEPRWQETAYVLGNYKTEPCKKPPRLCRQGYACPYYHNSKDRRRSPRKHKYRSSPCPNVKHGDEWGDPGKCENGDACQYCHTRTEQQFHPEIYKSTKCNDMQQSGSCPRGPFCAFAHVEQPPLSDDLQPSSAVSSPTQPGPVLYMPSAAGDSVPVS
Notes: RNA with constant flanks, vertebrate orthologous sites, ends assumed
All sequences stand within: GGGAGUUCUACAGUCCGACGAUC … CAACAGAGGAUUGAGCAUCA
Oligonucleotide	bound/input enrichment [ratio]
CUCCCGCACCUCACGACAGGGAGUCGGGGGAGCUCAGGAUGACCCUCAGCUGUUCCAAUCCAGUAUUUUUCUUUUUAAAAAUUACUGUAUUUAUUAUGACGAUGGUGACUCCCCGGUGCA	0.404
CUGUGAGCAGCUCGGGGCCGUUCGUGCAGUGCACGUAUGGCGGCGUCGCCGAUCAGGGAAUAAUUGGCGGUGCUCGGUUGAGCCAGGGUCUAUCCCCUAAUCACCUCAAUAAUGGAAAUC	0.314
GACCUCUGGAACUCCUAACUUUCGAGCUGUGGCUGUUUUUGAUACUGAUUUUAUUUUCUUUACGACUUUCCCAUUUCCUGCCUUCUCUCCUUCUGUUCCCACGGCUUGACUUGUGGAUGG	1.18
CUGUUGUUAAGCACUGUGUUCCAGACCGUGUCUGACUUUAGUGUAACCUAGGAGAUUUUAUAGUUUUAUUUUAAUGAAACCCUGCUUGGCGCCGAACAGCGGGGAGAGCAGUGUCUUCUA	0.917
CUAGUCUUCCACUUAGGGUUGGCCUCAAAUCUAUAGGACUUAUGACAAAUGUAUAUCUGCUUAGGUUGAGUUUAAUAUUUUUUUAUUAACCUGUAAAUAAAGAUUGCAUCUUCUACAUUA	0.496
UGCAUUACUUGACCAGAGUUGAGGUGACAGAAUUUGAAGACAUCAAAUCAGGUUACAGAAUAGAUUUUUAUUUUGAUGAGAAUCCCUACUUUGAAAAUAAAGUUCUCUCCAAAGAGUUUC	0.514

Study 3 — technique: RNA Bind-n-Seq; molecule type: RNA; sample: in vitro; concentration: 365 nM; baseline: no-protein control; reading: higher = stronger binding
Target: RNA binding protein fox-1 homolog 2, RRM domain, GST-SBP tag (RBFOX2, Homo sapiens, UniProt O43251-10, residues 100-194)
Notes: natural RNA segment, single round, ends assumed
All sequences stand within: GGGAGUUCUACAGUCCGACGAUC … UGGAAUUCUCGGGUGCCAA
Target sequence (chain): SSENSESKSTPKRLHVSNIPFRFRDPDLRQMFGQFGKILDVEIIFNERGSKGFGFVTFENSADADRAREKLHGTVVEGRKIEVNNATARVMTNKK
Oligonucleotide	RBNS enrichment (R)
AUUGAAAGGUUGCGAUGGCAACCAGCCUCCAGCCAUGCAGGCCUGUUUUUAGAGAGAUGGGUCUCUCUGAGGAGGUCUGUCUCCCUGCUGUACAAUGCCUUUUAAACCUU	0.336
UGUUGUCCUUAAAAGAUCAGGGCAGUGACUUUCACAGCAGGACUUUGACUCCCACAUUGGUUGAUCACACAAAACUGUCAGCAUUUGGGUAAUCUGAUGUAUAGUUGUUU	0.782
GAAAAGGUAUGGUAAAAAUACAAUUUUAUAAUCUUAUGGGACUACCAUCAAUAUGUAGACCGUCAUUGACCAAAACAUCCUGAUGUGUGCAUGACUGUACUUUUCAUUAA	2.24
UAAAAUGAAUAGGUUUGUGUUUAUAGCCUAUAAUAACUCUAGUUGAAUCAUGUACACAGCAGGAGUGGUCACAGUAAAAACUGGUAGCAGGAAAAUUUGAAAGGGUUUGA	0.777
UGAUCUUAGUGAUCCCCCUACUACUACCACCAAUUCACUUCACAAAGUCAGUUAUGAGUCUACCAGACUUUGUUCUGAAAAAUAGAAACAAAACACCUGAUUAAGCUCUU	0.608
AGAGAAACAGAACAGCGAUCACUAACCGUUCCGCCGCCCACCCUCUGCUAGACACAGCCAAGGCCAACGAGGCAAGCAGAAGCAGCGGCCGCAGCGAAGCUGCCGUUCAU	0.283
CUACUUGGUACAAUAAUUAUUGUAAUUAAGAGAUGUAGCCUUUAUUAAAAUUUUAUAUUUUUCAAAAUGUCAGCCUCAUCUUUGGAUCCCGCAGGGUGGGAGUGGGACCA	0.489
GGGGCUGAUUUUAUUACCAGGUUACCCUGUUCUAGAUCAGGAGGGUCUAUUUCCUGUUGCCGCUCUGCAGCCUGGACCUGUGGACCCUGGUUGUAAAGAGUAAAACUGUA	0.341
UGUUGGAAAUAAAACACGUCCUAGCUGAACCCUUACUGUCCAGGAGGUUCCGUGUGGAGGUGGCACUGGGCCGGGCCUCCCUCUCAGGCUCCUUUGCUGCCCACUUGUAA	0.281
AAGACAAAAUGAAACAAAACCGAGCAGUUAUGGGUUUUGUUCUAUAGGAUGCCAUCAGCCAUCGAGGGGGCGUCUUGCCUCUGCCCAUCGCUCCAGGAGUCUACGCUGUC	0.493
CCUUCACGACCCAGAUCUGUGCUGGCCAAAGUCGCUGCGUUUCUCAUCCCCAGCGAGGGUUUCCUCUCAGUCAUUUGUUUACCAGAAAGGAUGAAACUUGCCUGUUGGGG	0.681
UCAAUUUGUAAAGAAAUUUUUAUUAAACACUGUAGAAAAAGUGAAGCUGAGAACUCUUUUGUGCAUUUAUAUUUCCUACUGAAUUCUGGUAGCCCACUUUUAACAUUGUA	2.84

Study 4 — technique: protein binding microarray; molecule type: double-stranded DNA, one strand shown; sample: in vitro; concentration: not given; baseline: not given; reading: higher = stronger binding
Target: Histone acetyltransferase KAT6A, both winged helices, GST fusion (KAT6A, Homo sapiens, UniProt Q92794, residues 1-181)
Notes: 8-mer, flanks averaged, mean of 2 arrays, mostly near background
Target sequence (chain): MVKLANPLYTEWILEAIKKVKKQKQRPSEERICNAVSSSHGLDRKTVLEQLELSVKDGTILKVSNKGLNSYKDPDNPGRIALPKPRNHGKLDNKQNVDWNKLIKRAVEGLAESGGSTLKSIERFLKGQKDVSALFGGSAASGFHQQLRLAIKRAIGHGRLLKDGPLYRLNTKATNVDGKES
Oligonucleotide	E-score
GCCTTAGA	0.0943
AAGTATGC	-0.028
AGGACATA	-0.148
CTTGAATC	-0.108
ATGCTATA	-0.0377
ATCCATCG	-0.0896
GACGTTGA	-0.0493
GTGACAAC	-0.0205
GACTTCGC	0.0873
GAACCCGC	0.315
CTATAGCA	0.061
AGCGTACA	0.00771
CTGCTACC	-0.16
AAAACACA	-0.115
AAGGAAGG	-0.198
CAACGTCC	-0.00231
CGCCGACC	0.288
GAGTCGAA	-0.15
GCTGCTCA	-0.0941
AAGAGAGC	-0.0495
AATTAGCA	-0.0154
ATGCACGA	-0.0772
AGAGAGTG	-0.1
GATGCTTA	0.00878
AATCTACT	0.0207

Some of these lines once more (study 1):
Oligonucleotide	log2 enrichment
GCAGGAAGUAAAAACAAAUGGAAAUGCAAAGGAUAGUGGCAGGGGUGGGGGUUGCUAAGGAAAGGGUGGGAUGGGAGUGGGUAAAGAGUU	0.753
CACUGACAACACGCACCCACACAGACACAGAGGGAAGGGGUUGGGAUGGGGACAGGGUGCACAGCAGGGCGGGGUAGGACCCCAGCCCCU	0.0932
UCCGCGUGUGAAGUUUUUCUCGGCUGCAUCAUGGGUGCCACAUUCUUUUUGUUGUUUUCAGUGCUGCAAAAGCCCCAUAUCUGGCCAAGU	-0.239
CAAGUCCUGUGCUACACAUCGUAUGUACCGAAUCGGGCCGGGGCCGGGGCCGGGGAAAGUAUUAUGUUACGCCGUUCGGAUCUGCACUUC	-1.46
CUCAAGUCCUGUGCUACACAUCGUAUGUACCGAAUCGGCCCGGCCCGGCCCGGGAAAGUAUUAUGUUACGCCGUUCGGAUCUGCACUUCC	-0.905
